Measured values from different studies.

COc1cc2nc(N3CCCN(C)CC3)nc(NC3CCN(Cc4ccccc4)CC3)c2cc1OC  viability (OCI-Ly1; 1 µM, 120 h): 152%
N=C(N)c1cccc(OCc2ccc(COc3cccc(C(=N)N)c3)cc2)c1  MIC (Escherichia coli; W3110; in combination, checkerboard, added: rifampicin): 25 µg/mL
CC(=O)NC[C@H]1CN(c2ccc(N3CCOCC3)c(F)c2)C(=O)O1  MIC (Bifidobacterium longum; HM-846): < 2.96 µM
N=C(N)c1ccc(OCc2ccc(-c3ccccc3)cc2COc2ccc(C(=N)N)cc2)cc1  MIC (Escherichia coli; 552100; compound alone): 200 µg/mL
Cc1ccc(CCC(=O)Nc2nnc(S(N)(=O)=O)s2)cc1  MIC (Bifidobacterium longum; HM-848): > 784 µM
CCCCCCCCOC(=O)C(=O)CCC(=O)O  viability (OCI-Ly1; 1 µM, 120 h): 111%
Cc1c(CN(C)C(=O)/C=C/c2cnc3c(c2)CCC(=O)N3)oc2ccccc12  MIC (Escherichia coli; broth microdilution; AR-0114): > 32 µg/mL
C[C@H]1COc2c(N3CCN(C)CC3)c(F)cc3c(=O)c(C(=O)O)cn1c23  MIC (Shigella flexneri; agar dilution; ATCC 12022 susceptible): 0.06 µg/mL
CC1(C)SC2C(NC(=O)C(NC(=O)C3=C(O)CN(c4ccccc4)C3=O)c3ccccc3)C(=O)N2C1C(=O)O (centres unmarked)  MIC (Escherichia coli; broth microdilution; BW25113 wild type; 18 h): 100 µg/mL
C[C@@H](c1ncncc1F)[C@](O)(Cn1cncn1)c1ccc(F)cc1F  MIC (Paecilomyces variotii; MYA-3630): 0.06 µg/mL
CCCCCCC#Cc1cncc(-c2nnc(SCc3ccc([N+](=O)[O-])cc3)n2C)c1  MIC (Mycobacterium avium; no activity below value): ≥ 200 µM
C[C@H](NC(=O)CO/N=c1\cc2n(-c3ccc(Cl)cc3)c3ccccc3nc-2cc1Nc1ccc(Cl)cc1)C(=O)OC(C)(C)C  MIC (Mycobacterium avium; bacterial growth; clinical isolate): > 30 µM
N=C(N)c1ccc(OCc2ccccc2COc2ccc(C(=N)N)cc2)cc1  MIC (Escherichia coli; BW25113; compound alone, rifampicin checkerboard): > 200 µg/mL
O=C(O)c1cn(C2CC2)c2cc(N3CCNCC3)c(F)cc2c1=O  MIC (Shigella flexneri; broth dilution; CGMCC 1.187): 0.03 µM
CC1(C)S[C@@H]2[C@H](NC(=O)[C@H](N)c3ccccc3)C(=O)N2[C@H]1C(=O)O  MIC (Pseudomonas aeruginosa; clinical isolate RKI-No_628/16): > 16 µg/mL
CCCCCCCCCC(=O)N[C@@H](Cc1c[nH]c2ccccc12)C(=O)N[C@H](CC(N)=O)C(=O)N[C@@H](CC(=O)O)C(=O)N[C@@H]1C(=O)NCC(=O)N[C@@H](CCCN)C(=O)N[C@@H](CC(=O)O)C(=O)N[C@H](C)C(=O)N[C@@H](CC(=O)O)C(=O)NCC(=O)N[C@H](CO)C(=O)N[C@@H]([C@H](C)CC(=O)O)C(=O)N[C@@H](CC(=O)c2ccccc2N)C(=O)O[C@@H]1C  MIC (Staphylococcus aureus; SH1000; added: phosphatidylglycerol, molar ratio 1): 2 µg/mL
O=C(CO/N=c1\cc2n(-c3ccc(Cl)cc3)c3ccccc3nc-2cc1Nc1ccc(Cl)cc1)NCc1ccc(C(F)(F)F)cc1  MIC (Mycobacterium avium; bacterial growth; clinical isolate): > 30 µM

Some of these lines once more:
CC1(C)S[C@@H]2[C@H](NC(=O)[C@H](N)c3ccccc3)C(=O)N2[C@H]1C(=O)O  MIC (Pseudomonas aeruginosa; clinical isolate RKI-No_628/16): > 16 µg/mL
CCCCCCCCCC(=O)N[C@@H](Cc1c[nH]c2ccccc12)C(=O)N[C@H](CC(N)=O)C(=O)N[C@@H](CC(=O)O)C(=O)N[C@@H]1C(=O)NCC(=O)N[C@@H](CCCN)C(=O)N[C@@H](CC(=O)O)C(=O)N[C@H](C)C(=O)N[C@@H](CC(=O)O)C(=O)NCC(=O)N[C@H](CO)C(=O)N[C@@H]([C@H](C)CC(=O)O)C(=O)N[C@@H](CC(=O)c2ccccc2N)C(=O)O[C@@H]1C  MIC (Staphylococcus aureus; SH1000; added: phosphatidylglycerol, molar ratio 1): 2 µg/mL
N=C(N)c1ccc(OCc2ccc(-c3ccccc3)cc2COc2ccc(C(=N)N)cc2)cc1  MIC (Escherichia coli; 552100; compound alone): 200 µg/mL
